Measured values from different studies.
A part holds a random share of what one study measured.
Sequence of UniProt P29317 (whole entry, looked up): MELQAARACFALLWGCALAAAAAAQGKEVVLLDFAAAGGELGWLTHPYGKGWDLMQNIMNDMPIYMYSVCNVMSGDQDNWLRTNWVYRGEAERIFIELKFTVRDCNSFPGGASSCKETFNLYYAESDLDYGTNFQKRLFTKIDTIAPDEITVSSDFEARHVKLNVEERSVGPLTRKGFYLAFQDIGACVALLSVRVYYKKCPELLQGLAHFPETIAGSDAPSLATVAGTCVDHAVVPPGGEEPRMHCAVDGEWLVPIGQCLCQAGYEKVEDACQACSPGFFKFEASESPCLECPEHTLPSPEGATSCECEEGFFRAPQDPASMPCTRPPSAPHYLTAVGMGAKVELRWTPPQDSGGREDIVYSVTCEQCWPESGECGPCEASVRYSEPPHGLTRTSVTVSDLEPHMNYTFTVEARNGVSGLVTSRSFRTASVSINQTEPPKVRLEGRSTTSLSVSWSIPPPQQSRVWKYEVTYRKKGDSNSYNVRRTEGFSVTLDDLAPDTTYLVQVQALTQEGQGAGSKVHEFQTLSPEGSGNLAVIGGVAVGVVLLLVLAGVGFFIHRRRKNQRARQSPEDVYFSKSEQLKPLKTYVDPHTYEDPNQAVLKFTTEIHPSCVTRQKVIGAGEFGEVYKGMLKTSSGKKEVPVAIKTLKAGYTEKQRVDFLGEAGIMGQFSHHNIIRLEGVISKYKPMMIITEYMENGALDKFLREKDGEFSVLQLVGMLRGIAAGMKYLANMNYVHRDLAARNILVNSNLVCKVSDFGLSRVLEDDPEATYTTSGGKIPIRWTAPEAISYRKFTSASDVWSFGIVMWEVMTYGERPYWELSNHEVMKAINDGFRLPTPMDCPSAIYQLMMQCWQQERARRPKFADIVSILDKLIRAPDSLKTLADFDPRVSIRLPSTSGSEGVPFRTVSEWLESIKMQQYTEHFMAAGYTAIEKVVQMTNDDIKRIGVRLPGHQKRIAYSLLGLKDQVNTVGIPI
Sequence of UniProt Q12866 (whole entry, looked up): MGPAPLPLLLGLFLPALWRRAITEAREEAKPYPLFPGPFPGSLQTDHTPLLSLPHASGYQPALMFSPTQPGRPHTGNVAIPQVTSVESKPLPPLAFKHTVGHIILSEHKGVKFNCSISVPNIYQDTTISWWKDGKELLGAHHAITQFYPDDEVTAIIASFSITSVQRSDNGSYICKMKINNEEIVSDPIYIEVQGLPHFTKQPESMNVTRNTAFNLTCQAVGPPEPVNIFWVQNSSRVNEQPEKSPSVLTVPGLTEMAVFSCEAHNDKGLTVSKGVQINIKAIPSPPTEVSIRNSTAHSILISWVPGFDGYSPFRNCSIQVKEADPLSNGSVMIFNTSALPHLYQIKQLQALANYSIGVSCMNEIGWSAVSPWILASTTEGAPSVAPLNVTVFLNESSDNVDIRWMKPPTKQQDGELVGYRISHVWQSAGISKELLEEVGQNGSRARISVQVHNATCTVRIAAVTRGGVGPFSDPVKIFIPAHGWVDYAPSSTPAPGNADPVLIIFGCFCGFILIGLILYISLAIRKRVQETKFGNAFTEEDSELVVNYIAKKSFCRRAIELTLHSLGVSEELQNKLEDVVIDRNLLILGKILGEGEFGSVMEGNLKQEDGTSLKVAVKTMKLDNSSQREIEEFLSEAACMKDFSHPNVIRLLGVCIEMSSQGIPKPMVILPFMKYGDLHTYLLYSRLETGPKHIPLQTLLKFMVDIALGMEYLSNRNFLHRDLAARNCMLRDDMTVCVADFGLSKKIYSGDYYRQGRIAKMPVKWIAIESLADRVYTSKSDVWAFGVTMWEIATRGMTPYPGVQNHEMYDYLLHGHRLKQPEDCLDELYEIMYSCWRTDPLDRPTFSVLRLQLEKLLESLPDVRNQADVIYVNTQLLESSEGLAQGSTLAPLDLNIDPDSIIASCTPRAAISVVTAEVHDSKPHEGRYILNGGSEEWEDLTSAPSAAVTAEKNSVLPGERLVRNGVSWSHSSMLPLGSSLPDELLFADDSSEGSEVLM

Sample 1
Target: RING finger protein unkempt homolog, zinc fingers 1-6, GST-SBP tag (UNK, Homo sapiens, UniProt Q9C0B0, residues 30-357)
Sequence of UniProt Q9C0B0 (30-357, looked up): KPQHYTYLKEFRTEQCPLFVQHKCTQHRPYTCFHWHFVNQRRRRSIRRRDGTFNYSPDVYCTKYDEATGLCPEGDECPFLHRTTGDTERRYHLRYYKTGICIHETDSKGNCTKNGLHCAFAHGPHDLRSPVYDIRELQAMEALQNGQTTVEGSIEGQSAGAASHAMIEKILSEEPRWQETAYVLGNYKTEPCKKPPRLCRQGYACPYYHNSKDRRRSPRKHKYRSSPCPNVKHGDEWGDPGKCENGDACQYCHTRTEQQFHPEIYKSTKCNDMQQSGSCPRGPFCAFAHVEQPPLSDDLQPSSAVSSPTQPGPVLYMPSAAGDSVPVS
Method: RNA Bind-n-Seq
Form: RNA
Medium: in vitro
Concentration: not given
Setting: RNA with constant flanks, human-mouse chimeric sites, ends assumed
Baseline: input RNA pool
Reading: higher = stronger binding
Shared flanks, not repeated: GGGAGUUCUACAGUCCGACGAUC … CAACAGAGGAUUGAGCAUCA
| Sequence | bound/input enrichment [ratio] |
| --- | --- |
| GCUGAAAAUGAAGAAGAGGCAGCUGAUGUCUGGUACAACCUGGGGCACAUAGCUGUGGGAAUAGGAGAUACAAACUUGGCCCAUCAGUGCUUCAGGCUGGCCCUGGUCCACAACAACCAC | 0.283 |
| GCCACCAGAUCCCAGAAACAUGACCCUUGCUGCCUACAAGGAGAAGAUGAAGGAGCUCCCGCUGGUGUCCUUGUUCUGCUCCUGCUUCCUGGCCGAUCCCCUGAAUAAGUCGUCCUACAA | 0.197 |
| AAUUUCCUGUCAUACUUUUUAGACAUUCACAUCAGACUUACAGAGCACCUGGCCACAUUCUAGGUUUGAAUUAUUUCUCAGCUAUGGAUAUGAUCAAAGAGUGAAAAUGCUUAACUAAUG | 0.513 |
| CUGAGGAUACCACUGAAGAGACCUUAAAAGAAUCAUUUGAGGGCUCUGUUCGUGCAAGAAUAGUCACCUGACCGGGAACUGGUUCUUCCAAAGGGUUUUGGUUUUGUGACUUUAAUAGUG | 0.467 |
| ACAGUUAUAUUGUUGAGGUUUGUAUUUAUAUAUUCUUGUAGUGUCUGCUUGCCUGUGACUUCUGGUAAAAUAAAAUAAGCCUUUGAAAAUAUUUUAGCAUGGUAUUUUUCUAAAAAUAAA | 1.63 |
| ACCAUUUUCGCGGUUCAAGGUUUUGUGGUAGUUCACUCUAUGUAUUAAAUUAUUAUUCUGCUUAGCUUAUAAUAAGGAUAAUUGCAUUUAAAGAGGUUACUGAAUGUUACUCUGAAACUU | 0.366 |
| GAUAAGAAAAGCUUGUUGGAGACCCGAUUGCAUGUCACUGGUAGAGACCUGAGGUGUCAAAUAGCUGAAACUUUCGGAUUUCAAGAAAAUUAUAUCAAGAUCGUAAUAAAUAAGAAACAG | 0.28 |
| AAAGAGUGGAUAGAGUGUGCACACGGGAUCGGUGGGACCCGGGCGAAAAAGGAGUGCAAGAUAGAGUUCGAUGACUUCGAAGAGUGCUUGCUUCGGCAGAAAACGAUGAGGCGAAUGCAU | 0.265 |

Sample 2
Target: Leucine-rich repeat serine/threonine-protein kinase 2 (LRRK2, Homo sapiens, UniProt Q5S007)
Sequence of UniProt Q5S007 (whole entry, looked up): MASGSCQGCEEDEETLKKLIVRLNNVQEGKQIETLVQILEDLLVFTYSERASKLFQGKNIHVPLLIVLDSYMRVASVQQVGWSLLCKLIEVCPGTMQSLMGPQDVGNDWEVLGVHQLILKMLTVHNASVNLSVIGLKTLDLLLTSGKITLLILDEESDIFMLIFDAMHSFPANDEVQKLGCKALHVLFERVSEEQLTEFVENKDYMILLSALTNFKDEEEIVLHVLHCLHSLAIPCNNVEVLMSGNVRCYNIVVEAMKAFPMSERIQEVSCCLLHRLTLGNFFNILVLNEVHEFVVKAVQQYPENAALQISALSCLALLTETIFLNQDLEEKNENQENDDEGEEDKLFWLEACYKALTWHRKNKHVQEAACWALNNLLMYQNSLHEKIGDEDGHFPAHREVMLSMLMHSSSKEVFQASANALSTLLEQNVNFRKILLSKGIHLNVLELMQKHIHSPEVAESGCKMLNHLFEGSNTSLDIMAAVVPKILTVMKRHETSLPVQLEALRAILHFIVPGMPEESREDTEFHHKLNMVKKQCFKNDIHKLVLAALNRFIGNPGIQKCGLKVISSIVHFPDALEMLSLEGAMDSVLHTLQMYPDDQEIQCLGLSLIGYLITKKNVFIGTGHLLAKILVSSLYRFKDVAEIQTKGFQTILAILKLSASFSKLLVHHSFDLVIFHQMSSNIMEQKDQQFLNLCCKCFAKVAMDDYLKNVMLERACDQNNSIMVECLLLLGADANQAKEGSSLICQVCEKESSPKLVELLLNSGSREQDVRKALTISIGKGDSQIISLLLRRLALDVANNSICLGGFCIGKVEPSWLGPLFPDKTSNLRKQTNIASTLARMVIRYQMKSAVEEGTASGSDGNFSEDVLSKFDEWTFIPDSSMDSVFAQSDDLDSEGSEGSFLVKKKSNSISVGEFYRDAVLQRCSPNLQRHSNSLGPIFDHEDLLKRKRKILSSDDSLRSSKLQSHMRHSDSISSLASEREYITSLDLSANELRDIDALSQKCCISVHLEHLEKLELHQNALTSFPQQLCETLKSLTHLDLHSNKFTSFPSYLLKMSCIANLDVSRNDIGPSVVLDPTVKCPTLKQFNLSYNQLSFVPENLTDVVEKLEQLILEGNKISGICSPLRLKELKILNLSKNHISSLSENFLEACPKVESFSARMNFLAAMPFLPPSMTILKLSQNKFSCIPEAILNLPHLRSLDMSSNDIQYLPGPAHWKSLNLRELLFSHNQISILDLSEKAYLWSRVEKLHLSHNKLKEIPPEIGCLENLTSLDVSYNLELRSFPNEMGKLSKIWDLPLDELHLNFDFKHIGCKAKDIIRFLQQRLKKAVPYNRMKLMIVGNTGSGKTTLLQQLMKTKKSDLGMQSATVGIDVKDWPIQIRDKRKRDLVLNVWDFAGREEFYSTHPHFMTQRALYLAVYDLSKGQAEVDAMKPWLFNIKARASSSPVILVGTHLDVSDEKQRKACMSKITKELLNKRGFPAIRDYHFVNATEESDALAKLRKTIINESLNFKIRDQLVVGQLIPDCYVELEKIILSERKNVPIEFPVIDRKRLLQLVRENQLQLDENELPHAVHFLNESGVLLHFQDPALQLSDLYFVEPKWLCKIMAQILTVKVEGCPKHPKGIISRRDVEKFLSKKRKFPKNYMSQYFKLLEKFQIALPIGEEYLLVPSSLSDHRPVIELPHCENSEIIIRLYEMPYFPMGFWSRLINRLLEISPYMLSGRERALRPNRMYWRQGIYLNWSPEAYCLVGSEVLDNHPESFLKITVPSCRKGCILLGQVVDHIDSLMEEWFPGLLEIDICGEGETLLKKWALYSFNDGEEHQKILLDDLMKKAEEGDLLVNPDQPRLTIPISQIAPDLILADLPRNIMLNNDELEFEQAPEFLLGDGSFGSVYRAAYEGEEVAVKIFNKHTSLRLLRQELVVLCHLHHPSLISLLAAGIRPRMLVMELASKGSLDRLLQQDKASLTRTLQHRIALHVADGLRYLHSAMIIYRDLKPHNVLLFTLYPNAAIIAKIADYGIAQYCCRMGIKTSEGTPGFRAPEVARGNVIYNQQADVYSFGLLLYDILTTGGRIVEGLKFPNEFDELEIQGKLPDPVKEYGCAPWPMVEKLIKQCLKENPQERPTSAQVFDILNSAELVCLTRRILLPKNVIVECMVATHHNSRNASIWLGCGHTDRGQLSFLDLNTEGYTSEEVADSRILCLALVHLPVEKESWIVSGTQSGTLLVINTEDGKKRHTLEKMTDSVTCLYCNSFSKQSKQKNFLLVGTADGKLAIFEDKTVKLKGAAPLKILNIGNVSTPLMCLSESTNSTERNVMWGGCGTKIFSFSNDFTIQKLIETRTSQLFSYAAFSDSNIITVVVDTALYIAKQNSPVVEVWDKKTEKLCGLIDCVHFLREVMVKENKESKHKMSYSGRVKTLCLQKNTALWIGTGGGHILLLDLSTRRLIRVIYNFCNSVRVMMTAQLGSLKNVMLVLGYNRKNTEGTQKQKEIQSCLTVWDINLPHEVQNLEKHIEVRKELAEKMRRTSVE
Read-out: enzyme activity
Mode: inhibitor
Concentration: 0.5 µM
Baseline: control
| Structure (SMILES) | remaining activity [%] |
| --- | --- |
| Nc1ncnc2n[nH]c(Nc3ccc(F)cc3)c12 | 89.6 |
| CNC(=O)c1cc(Oc2ccc(NC(=O)Nc3ccc(Cl)c(C(F)(F)F)c3)cc2)ccn1 | 106 |
| Oc1ccc(-c2nc(-c3ccncc3)c(-c3ccc(F)cc3)[nH]2)cc1 | 95.8 |
| Nc1ccc2ncnc(NCCc3ccc(Oc4ccccc4)cc3)c2c1 | 98.5 |
| O=C(Nc1cccc(Nc2cc(Nc3cccc(C(F)(F)F)c3)ncn2)c1)C1CC1 | 95.6 |
| CCOC(=O)c1c(C)[nH]c(/C=C2\C(=O)Nc3ccccc32)c1C | 28.6 |
| Cc1cccc(-c2[nH]c(C(C)(C)C)nc2-c2ccc3c(c2)OCO3)n1 | 103 |
| C#Cc1cccc(Nc2ncnc3cc(OCCOC)c(OCCOC)cc23)c1 | 62.3 |
| Cn1sc(=O)n(Cc2ccccc2)c1=O | 91.9 |
| CO[C@H]1C[C@@H]2CC[C@@H](C)[C@@](O)(O2)C(=O)C(=O)N2CCCC[C@H]2C(=O)O[C@H]([C@H](C)C[C@@H]2CC[C@@H](O)[C@H](OC)C2)CC(=O)[C@H](C)/C=C(\C)[C@@H](O)[C@@H](OC)C(=O)[C@H](C)C[C@H](C)/C=C/C=C/C=C/1C | 98.7 |
| CN(C)c1ccc(C=C2C(=O)Nc3ccccc32)cc1 | 89.8 |
| O=C(O)c1ccc2c3c1cccc3c(=O)n1c3ccccc3nc21 | 70.1 |
| O=C1NC(=O)C(c2cn(CCCn3ccnc3)c3ccccc23)=C1Nc1ccccc1 | 43.6 |

Sample 3
Structure (SMILES): CN([C@@H]1CCc2c(CC(=O)O)c3cc(S(C)(=O)=O)ccc3n2C1)S(=O)(=O)c1ccc(F)cc1
Read-out: cell-free assay
Method: competition with immobilised ligand
Concentration: 1 µM
| target | remaining binding |
| --- | --- |
| MERTK (Homo sapiens, UniProt Q12866) | 100% |
| CDK9 (Homo sapiens, UniProt P50750) | 100% |
| PIK3CA (Homo sapiens, UniProt P42336, H1047L) | 96% |
| MAP3K7 (Homo sapiens, UniProt O43318) | 100% |
| MAPK6 (Homo sapiens, UniProt Q16659) | 100% |
| EPHA2 (Homo sapiens, UniProt P29317) | 100% |

Mixed results
| SMILES | species | dose | setting | measurement | value |
| --- | --- | --- | --- | --- | --- |
| CC(C)n1cnc(-c2ccc(F)cc2)c1-c1ncc(C(=O)Nc2ccc(N3CCN(C)CC3)cc2)[nH]1 | IPF patients | 30 mg once daily | adverse event | Rhinorrhoea incidence | 0% |
